Results collected from several papers.
Lines come from different studies, so protocols differ. Values joined by “and” are separate records of one study, mostly repeats; a detail may differ. ± marks the error that the study gave.

SMILES | cell line | effect on | method | medium | time | notes | IC50
CCC1(c2ccc(NC(=O)CCC(=O)OC3OC4OC5(C)CCC6C(C)CCC(C3C)C46OO5)cc2)CCC(=O)NC1=O (mixture of isomers) | A2780 | cell growth or viability | CCK-8 | – | – | – | 1.05 µM
CC(C)C12OC1C1OC13C1(C)CCC4=C(COC4=O)C1CC1OC13C2OC(=O)CCC(=O)OC1OC(CO)C(O)C(O)C1O (centres unmarked) | NCI-H1299 | cell growth or viability | XTT | – | 47 h | – | 6.4 µM
CC(C)CCC[C@@H](C)[C@H]1CC[C@H]2[C@@H]3CC=C4C[C@@H](OC(=O)NCCCN(C)CCCNC(=O)Oc5ccc6c7c(c(NCCN(C)C)nc6c5)C(=O)c5ccccc5-7)CC[C@]4(C)[C@H]3CC[C@]12C | ARPE-19 | cytotoxicity | CCK-8 | – | 48 h | – | ~0.175 µM
CC(C)C[C@H](NC(=O)[C@H](Cc1ccccc1)NC(=O)[C@H](C)NC(=O)[C@@H](CS)NC(=O)CNC(=O)[C@H](N)CO)C(=O)N[C@@H](CO)C(=O)N[C@H](C(=O)N[C@@H](CCCCN)C(=O)N[C@@H](CCCCN)C(=O)N[C@@H](CCC(N)=O)C(=O)N[C@@H](Cc1ccccc1)C(=O)N[C@@H](CCC(=O)O)C(=O)N[C@@H](CCC(=O)O)C(=O)N[C@@H](CC(C)C)C(=O)N[C@H](C(=O)N[C@@H](CC(C)C)C(=O)NCC(=O)N[C@@H](CCC(=O)O)C(=O)N[C@@H](Cc1ccccc1)C(=O)N[C@@H](CC(C)C)C(=O)N[C@H](CCCCN)C(=O)N[C@H](CC(C)C)C(=O)N[C@H](CC(=O)O)C(=O)N[C@@H](CCCNC(=N)N)C(=O)N[C@H](CCCNC(=N)N)C(=O)N[C@@H](CCCNC(=N)N)C(=O)N[C@@H](CCCCN)C(=O)O)[C@@H](C)O)C(C)C | A549 SMAC-expressing | cell death | annexin V/PI flow cytometry | – | 24 h | serum-free medium | 40 µM
Cc1cc(Oc2nc(N3CC[C@@H](c4ccncc4)C3)ncc2F)[nH]n1 | L-363 | cell proliferation | – | blood cancer | – | – | 20.9 µM
CC(C)C12OC1C1OC13C1(C)CCC4=C(COC4=O)C1CC1OC13C2OC(=O)CCCOC1OC(CO)C(O)C(O)C1O (centres unmarked) | SNU-475 | cell growth or viability | XTT | – | 47 h | – | 4.6 µM
O=C1C(Cl)=C(Cl)C(=O)c2ccccc21 | MOLT-3 | cell growth or viability | XTT | – | – | – | 3.61 µM
CC(=O)N[C@H](C(=O)N[C@@H](CCCNC(=N)N)C(=O)N[C@@H](CCCCN)C(=O)N[C@@H](CCCNC(=N)N)C(=O)N[C@H](C(=O)N[C@@H](CC(C)C)C(=O)N[C@@H](CCCNC(=N)N)C(=O)N[C@@]1(C)CCCC=CCCC[C@@](C)(C(=O)N[C@@H](CCCNC(=N)N)C(=O)N[C@@H](CCC(=O)O)C(=O)N[C@@H](CC(C)C)C(=O)N[C@H](C(=O)N[C@@H](CCC(=O)O)C(N)=O)C(C)C)NC(=O)[C@H](CCC(N)=O)NC(=O)[C@H](CC(C)C)NC(=O)[C@H](CC(C)C)NC1=O)[C@@H](C)O)C(C)C | A-431 | cell viability | – | – | 18 h | serum-free | 13 µM
CCCCCCCC(=O)NCCCC[C@H](NC(=O)CCCCCCC)C(=O)N[C@@H](CCCCNC(=O)CCCCCCC)C(=O)NCC(=O)NCC(=O)NCC(=O)N[C@@H](CS)C(=O)N[C@@H](CCCNC(=N)N)C(=O)N[C@@H](CCCCN)C(=O)N1CCC[C@H]1C(=O)N[C@@H](CS)C(=O)N[C@@H](CCCNC(=N)N)C(=O)N[C@@H](CCCCN)C(=O)N1CCC[C@H]1C(N)=O | HEK293 | cell growth or viability | MTT | – | 24 h | – | 108 µM
O[C@]12C=C(c3nccc4c3[nH]c3ccccc34)[C@@H]3CCN(CCCC/C=C\CC1)C[C@@]31C[C@@H]3/C=C\CCCCN3[C@H]12 | SK-MEL | cell growth or viability | neutral red | – | 48 h | – | 1 µg/mL
CC(=O)N[C@H](C(=O)N[C@@H](CCCNC(=N)N)C(=O)N[C@@H](CCCCN)C(=O)N[C@@H](CCCNC(=N)N)C(=O)N[C@H](C(=O)N[C@@H](CC(C)C)C(=O)N[C@@H](CCCNC(=N)N)C(=O)N[C@@]1(C)CCCC=CCCC[C@@](C)(C(=O)N[C@@H](CCCNC(=N)N)C(=O)N[C@@H](CCC(=O)O)C(=O)N[C@@H](CC(C)C)C(=O)N[C@H](C(=O)N[C@@H](CCC(=O)O)C(N)=O)C(C)C)NC(=O)[C@H](CCC(N)=O)NC(=O)[C@H](CC(C)C)NC(=O)[C@H](CC(C)C)NC1=O)[C@@H](C)O)C(C)C | A-431 (wild-type EGFR) | cell viability | – | – | 18 h | – | 10 ± 0.54 µM
CSCC[C@H](N)C(=O)N[C@@H](C)C(=O)N[C@H](C(=O)N1CCC[C@H]1C(=O)N1CCC[C@H]1C(=O)N[C@H](C(=O)N[C@@H](Cc1ccc(O)cc1)C(=O)N[C@@H](C)C(=O)N[C@@H](CC(=O)O)C(=O)N[C@@H](CC(C)C)C(=O)NCC(=O)N[C@@H](CCCCN)C(=O)N[C@@H](CO)C(=O)N[C@@H](C)C(=O)N[C@@H](CCCNC(=N)N)C(=O)N[C@@H](CC(=O)O)C(=O)N[C@H](C(=O)N[C@@H](Cc1ccccc1)C(=O)N[C@H](C(=O)N[C@@H](CCCCN)C(=O)NCC(=O)N[C@@H](Cc1ccc(O)cc1)C(=O)NCC(=O)N[C@@H](Cc1ccccc1)C(=O)NCC(=O)N[C@@H](CC(C)C)C(=O)N[C@@H](CCCNC(=N)N)C(=O)N[C@@H](CCCCN)C(=O)N[C@@H](CCCCN)C(=O)N[C@@H](CCCNC(=N)N)C(=O)N[C@@H](CCCNC(=N)N)C(=O)N[C@@H](CCC(N)=O)C(=O)N[C@@H](CCCNC(=N)N)C(=O)N[C@@H](CCCNC(=N)N)C(=O)N[C@@H](CCCNC(=N)N)C(=O)NCC(=O)NCC(=O)O)[C@@H](C)O)C(C)C)[C@@H](C)O)C(C)C | MEC1 | cell growth or viability | flow cytometry | – | 90 min | – | > 20 µM
Cc1cc(Nc2nc(C[C@@]3(C(=O)O)CCN(Cc4cccc(Cl)c4F)[C@H](C)C3)cc(C)c2F)[nH]n1 | CoC1 | cell growth or viability | ATP luminescence | – | 5 days | – | 0.061 µM
C#CCCCC[C@H](C)C[C@@H](C)C(=O)N[C@@H](C)C(=O)N1CCC[C@H]1C(=O)N[C@H](C(=O)N[C@H](C(=O)N[C@H](C(=O)N[C@@H](Cc1ccccc1)C(=O)N1CCC[C@H]1C(=O)N1CCC[C@H]1C(C)=O)C(C)C)C(C)C)C(C)C | HEK293 | cell growth or viability | SRB | – | – | – | 352 µM and 282 µM and 349 µM
CCC1=C(C)C2=C(c3ccc(P(=NC(=O)c4ccccn4)(c4ccccc4)c4ccccc4)cc3)c3c(C)c(CC)c(C)n3[B-](C)(C)[N+]2=C1C | IMR-90 | cell growth or viability | MTT | – | – | – | 123 µM
CC(=O)N[C@H](C(=O)N[C@@H](CCCNC(=N)N)C(=O)N[C@@H](CCCCN)C(=O)N[C@@H](CCCNC(=N)N)C(=O)N[C@H](C(=O)N[C@@H](CC(C)C)C(=O)N[C@@H](CCCNC(=N)N)C(=O)N[C@@H](CCCNC(=N)N)C(=O)N[C@]1(C)CCCC=CCCC[C@@](C)(C(=O)N[C@@H](CCCNC(=N)N)C(=O)N[C@@H](CCC(=O)O)C(=O)N[C@@H](CC(C)C)C(=O)N[C@H](C(=O)N[C@@H](CCC(=O)O)C(N)=O)C(C)C)NC(=O)[C@H](CCC(N)=O)NC(=O)[C@H](CC(C)C)NC1=O)[C@@H](C)O)C(C)C | A-431 (wild-type EGFR) | cell viability | – | – | 18 h | – | > 100 µM
CCC1=C(C)C2=C(c3ccc(P(=NC4=[O+][Ru-]([Cl])[n+]5ccccc54)(c4ccccc4)c4ccccc4)cc3)c3c(C)c(CC)c(C)n3[B-](C)(C)[N+]2=C1C.Cc1ccc(C(C)C)cc1.Cl | IMR-90 | cell growth or viability | MTT | – | – | – | 60.3 µM
COc1ccc(NC(=O)c2ccc3[nH]c(-c4ccc(N(C)C)cc4)nc3c2)cn1 | HCT-116 | cell death | – | – | – | – | 6.9 µM
CC[C@H](C)[C@H](NC(=O)[C@H](C)NC(=O)[C@@H](N)Cc1c[nH]cn1)C(=O)N[C@@H](Cc1ccc(O)cc1)C(=O)N1CCC[C@H]1C(=O)N[C@@H](CCCNC(=N)N)C(=O)N[C@@H](Cc1c[nH]cn1)C(=O)N[C@@H](CCCCN)C(=O)N[C@@H](CCCCN)C(=O)N[C@@H](CC(C)C)C(=O)N[C@@H](CCC(=O)O)C(=O)N[C@H](C(=O)N[C@@H](C)C(=O)N[C@H](C(=O)N[C@@H](CC(N)=O)C(=O)N[C@@H](CC(C)C)C(=O)N[C@@H](C)C(=O)N[C@@H](Cc1c[nH]c2ccccc12)C(=O)N[C@H](C(=O)N[C@@H](C)C(=O)NCC(=O)N[C@@H](CC(N)=O)C(=O)N[C@@H](CO)C(=O)N[C@@H](CC(N)=O)C(=O)O)[C@@H](C)O)C(C)C)[C@@H](C)O | MEC1 | cell growth or viability | flow cytometry | – | 90 min | – | > 15 µM
Cc1ccc2c(Br)cc(Br)c([O-])c2n1.Cc1ccc2c(Br)cc(Br)c([O-])c2n1.[Co+2].c1cnc2c(c1)c1nccnc1c1cccnc12 | HL-7702 normal hepatocytes | cell viability | MTT | – | 48 h | – | 62.1 ± 1.09 µM

A few entries again:
SMILES | cell line | effect on | method | medium | time | notes | IC50
CCC1(c2ccc(NC(=O)CCC(=O)OC3OC4OC5(C)CCC6C(C)CCC(C3C)C46OO5)cc2)CCC(=O)NC1=O (mixture of isomers) | A2780 | cell growth or viability | CCK-8 | – | – | – | 1.05 µM
CC(C)C12OC1C1OC13C1(C)CCC4=C(COC4=O)C1CC1OC13C2OC(=O)CCCOC1OC(CO)C(O)C(O)C1O (centres unmarked) | SNU-475 | cell growth or viability | XTT | – | 47 h | – | 4.6 µM
